Experimental data gathered from unrelated publications.
“And” joins repeats or separate records; there may be more than shown. ± marks the error that the study gave.
MCA2: Metacaspase-2 (MCA2, Trypanosoma brucei brucei, UniProt Q585F3)
HLA class I histocompatibility antigen, A alpha chain allele A*80:01: HLA class I histocompatibility antigen, A alpha chain, allele A*80:01 (Homo sapiens, UniProt P04439)
FURIN: Furin (FURIN, Homo sapiens, UniProt P09958)
CASP3: Caspase-3 (CASP3, Homo sapiens, UniProt P42574)
PTPN1: Tyrosine-protein phosphatase non-receptor type 1 (PTPN1, Homo sapiens, UniProt P18031)

The chains behind the UniProt entries cited, without tags or fusion partners. Residues count along the entry.
UniProt Q585F3, whole entry, looked up: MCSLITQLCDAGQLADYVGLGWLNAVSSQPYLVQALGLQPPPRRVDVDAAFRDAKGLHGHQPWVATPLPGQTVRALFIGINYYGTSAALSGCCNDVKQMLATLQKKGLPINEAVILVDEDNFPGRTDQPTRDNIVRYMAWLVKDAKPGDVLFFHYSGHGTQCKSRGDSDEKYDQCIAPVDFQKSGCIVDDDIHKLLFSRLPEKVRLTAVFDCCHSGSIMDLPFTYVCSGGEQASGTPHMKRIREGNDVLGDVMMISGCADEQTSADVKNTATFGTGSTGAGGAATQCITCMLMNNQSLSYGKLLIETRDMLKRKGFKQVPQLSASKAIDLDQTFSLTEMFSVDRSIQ
UniProt P09958, whole entry, looked up: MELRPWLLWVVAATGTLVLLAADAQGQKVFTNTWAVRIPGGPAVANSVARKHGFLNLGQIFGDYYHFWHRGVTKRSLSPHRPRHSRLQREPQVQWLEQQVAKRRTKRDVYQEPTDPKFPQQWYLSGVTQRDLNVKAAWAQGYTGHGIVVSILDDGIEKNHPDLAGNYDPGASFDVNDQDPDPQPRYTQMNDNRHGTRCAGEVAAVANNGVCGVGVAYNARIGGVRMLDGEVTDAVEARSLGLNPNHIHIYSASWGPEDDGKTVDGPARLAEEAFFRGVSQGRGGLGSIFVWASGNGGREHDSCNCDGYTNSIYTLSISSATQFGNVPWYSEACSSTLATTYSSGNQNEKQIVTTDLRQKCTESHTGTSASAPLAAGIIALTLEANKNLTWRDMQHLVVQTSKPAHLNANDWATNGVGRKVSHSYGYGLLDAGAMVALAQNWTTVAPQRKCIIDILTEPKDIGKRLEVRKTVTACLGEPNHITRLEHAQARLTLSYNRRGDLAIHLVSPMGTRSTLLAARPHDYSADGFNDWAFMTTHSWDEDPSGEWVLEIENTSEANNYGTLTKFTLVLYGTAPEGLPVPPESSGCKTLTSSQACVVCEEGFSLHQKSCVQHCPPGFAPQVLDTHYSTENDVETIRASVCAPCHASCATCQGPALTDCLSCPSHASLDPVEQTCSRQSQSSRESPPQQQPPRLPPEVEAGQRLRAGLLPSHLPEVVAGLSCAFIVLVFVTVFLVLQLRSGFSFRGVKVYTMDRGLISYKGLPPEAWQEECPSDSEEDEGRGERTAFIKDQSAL
UniProt P42574, whole entry, looked up: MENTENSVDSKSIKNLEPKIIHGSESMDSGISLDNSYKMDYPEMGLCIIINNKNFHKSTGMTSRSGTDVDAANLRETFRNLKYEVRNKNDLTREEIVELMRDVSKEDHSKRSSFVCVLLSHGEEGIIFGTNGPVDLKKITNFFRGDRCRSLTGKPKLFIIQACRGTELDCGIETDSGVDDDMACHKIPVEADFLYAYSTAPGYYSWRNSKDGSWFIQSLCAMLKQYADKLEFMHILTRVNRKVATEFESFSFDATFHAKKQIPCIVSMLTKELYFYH
UniProt P18031, 1-321 limits assumed: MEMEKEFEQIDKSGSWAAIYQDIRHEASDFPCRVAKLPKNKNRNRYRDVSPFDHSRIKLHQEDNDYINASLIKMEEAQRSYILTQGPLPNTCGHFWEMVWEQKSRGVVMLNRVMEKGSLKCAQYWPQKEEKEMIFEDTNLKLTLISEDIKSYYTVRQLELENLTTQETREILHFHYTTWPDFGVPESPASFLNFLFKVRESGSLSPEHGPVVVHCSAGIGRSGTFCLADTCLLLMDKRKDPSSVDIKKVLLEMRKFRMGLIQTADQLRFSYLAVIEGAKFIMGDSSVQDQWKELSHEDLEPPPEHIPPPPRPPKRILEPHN
UniProt P18031, whole entry: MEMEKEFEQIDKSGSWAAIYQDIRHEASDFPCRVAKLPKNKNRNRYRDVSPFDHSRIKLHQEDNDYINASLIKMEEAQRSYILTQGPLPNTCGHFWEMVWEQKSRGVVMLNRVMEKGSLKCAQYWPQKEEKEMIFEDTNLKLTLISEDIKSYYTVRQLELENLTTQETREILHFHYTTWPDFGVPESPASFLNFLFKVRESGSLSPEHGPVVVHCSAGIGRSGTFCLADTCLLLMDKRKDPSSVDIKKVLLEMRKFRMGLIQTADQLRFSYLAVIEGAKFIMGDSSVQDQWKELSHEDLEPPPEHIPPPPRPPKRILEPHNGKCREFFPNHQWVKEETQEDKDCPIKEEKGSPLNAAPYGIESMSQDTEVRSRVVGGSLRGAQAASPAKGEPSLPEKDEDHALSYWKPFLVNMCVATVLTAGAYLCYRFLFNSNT
UniProt P37136, 32-614 limits assumed: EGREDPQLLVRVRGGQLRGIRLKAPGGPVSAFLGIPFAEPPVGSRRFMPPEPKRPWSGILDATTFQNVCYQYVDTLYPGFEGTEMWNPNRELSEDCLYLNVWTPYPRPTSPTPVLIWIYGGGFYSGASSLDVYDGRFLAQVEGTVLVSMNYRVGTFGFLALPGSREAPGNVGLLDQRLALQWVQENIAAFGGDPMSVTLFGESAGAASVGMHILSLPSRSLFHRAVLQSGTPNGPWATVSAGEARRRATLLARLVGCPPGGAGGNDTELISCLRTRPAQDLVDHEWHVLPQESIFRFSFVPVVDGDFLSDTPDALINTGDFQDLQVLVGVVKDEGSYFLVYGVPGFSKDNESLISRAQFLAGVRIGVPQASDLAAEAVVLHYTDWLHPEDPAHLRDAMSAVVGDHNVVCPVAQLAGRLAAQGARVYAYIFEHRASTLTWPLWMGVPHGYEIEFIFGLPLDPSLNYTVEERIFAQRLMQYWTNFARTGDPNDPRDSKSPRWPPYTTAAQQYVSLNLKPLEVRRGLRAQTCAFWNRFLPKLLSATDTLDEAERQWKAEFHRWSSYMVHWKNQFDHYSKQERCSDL
UniProt P30926, whole entry, looked up: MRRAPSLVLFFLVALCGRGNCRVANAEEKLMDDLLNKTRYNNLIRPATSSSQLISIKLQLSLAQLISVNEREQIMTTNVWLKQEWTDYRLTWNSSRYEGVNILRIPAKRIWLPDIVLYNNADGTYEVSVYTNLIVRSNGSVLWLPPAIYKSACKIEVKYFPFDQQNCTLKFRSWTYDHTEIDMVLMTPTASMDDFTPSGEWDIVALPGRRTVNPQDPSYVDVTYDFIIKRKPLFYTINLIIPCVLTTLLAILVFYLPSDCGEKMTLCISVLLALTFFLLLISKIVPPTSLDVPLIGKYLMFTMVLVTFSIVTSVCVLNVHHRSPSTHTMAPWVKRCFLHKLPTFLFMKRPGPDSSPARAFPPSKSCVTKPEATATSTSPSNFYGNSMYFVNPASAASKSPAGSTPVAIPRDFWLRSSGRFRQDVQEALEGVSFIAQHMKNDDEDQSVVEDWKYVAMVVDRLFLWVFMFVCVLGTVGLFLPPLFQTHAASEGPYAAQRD
UniProt P32297, whole entry, looked up: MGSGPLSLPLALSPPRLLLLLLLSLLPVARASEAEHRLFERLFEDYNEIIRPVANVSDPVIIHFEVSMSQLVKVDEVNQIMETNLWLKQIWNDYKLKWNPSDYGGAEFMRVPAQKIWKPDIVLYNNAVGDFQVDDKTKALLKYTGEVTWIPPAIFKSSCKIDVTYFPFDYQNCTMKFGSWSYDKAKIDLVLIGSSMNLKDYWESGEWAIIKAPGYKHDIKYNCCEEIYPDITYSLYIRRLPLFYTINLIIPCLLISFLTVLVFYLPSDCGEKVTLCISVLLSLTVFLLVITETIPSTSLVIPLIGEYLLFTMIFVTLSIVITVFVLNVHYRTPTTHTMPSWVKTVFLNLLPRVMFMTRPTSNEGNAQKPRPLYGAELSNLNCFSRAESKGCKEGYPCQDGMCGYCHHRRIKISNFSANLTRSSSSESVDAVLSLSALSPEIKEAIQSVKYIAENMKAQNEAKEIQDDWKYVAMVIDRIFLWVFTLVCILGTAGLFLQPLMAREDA
UniProt Q15825, whole entry M241L/F253L/V300I/V303I/V320I/I327V/R339S/K347N, looked up: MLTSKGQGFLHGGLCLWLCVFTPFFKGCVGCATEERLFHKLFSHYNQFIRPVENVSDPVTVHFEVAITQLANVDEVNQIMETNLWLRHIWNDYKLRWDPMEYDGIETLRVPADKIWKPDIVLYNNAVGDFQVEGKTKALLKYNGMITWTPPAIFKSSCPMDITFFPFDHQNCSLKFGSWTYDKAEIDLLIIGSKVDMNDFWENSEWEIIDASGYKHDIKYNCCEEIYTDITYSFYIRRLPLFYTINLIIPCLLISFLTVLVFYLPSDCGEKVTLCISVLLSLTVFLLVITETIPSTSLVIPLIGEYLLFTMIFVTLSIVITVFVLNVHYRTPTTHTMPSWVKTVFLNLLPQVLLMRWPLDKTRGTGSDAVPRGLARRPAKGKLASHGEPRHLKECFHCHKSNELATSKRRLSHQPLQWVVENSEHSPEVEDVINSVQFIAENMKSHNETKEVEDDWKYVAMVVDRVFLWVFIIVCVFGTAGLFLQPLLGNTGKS
UniProt P54292, whole entry: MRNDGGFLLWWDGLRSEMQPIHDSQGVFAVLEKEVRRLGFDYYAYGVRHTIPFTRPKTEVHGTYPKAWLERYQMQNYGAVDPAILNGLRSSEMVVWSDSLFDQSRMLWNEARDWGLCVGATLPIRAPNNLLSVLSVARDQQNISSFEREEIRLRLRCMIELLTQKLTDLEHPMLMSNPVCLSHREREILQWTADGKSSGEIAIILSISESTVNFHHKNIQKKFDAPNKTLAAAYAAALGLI
UniProt O07911, 1-430: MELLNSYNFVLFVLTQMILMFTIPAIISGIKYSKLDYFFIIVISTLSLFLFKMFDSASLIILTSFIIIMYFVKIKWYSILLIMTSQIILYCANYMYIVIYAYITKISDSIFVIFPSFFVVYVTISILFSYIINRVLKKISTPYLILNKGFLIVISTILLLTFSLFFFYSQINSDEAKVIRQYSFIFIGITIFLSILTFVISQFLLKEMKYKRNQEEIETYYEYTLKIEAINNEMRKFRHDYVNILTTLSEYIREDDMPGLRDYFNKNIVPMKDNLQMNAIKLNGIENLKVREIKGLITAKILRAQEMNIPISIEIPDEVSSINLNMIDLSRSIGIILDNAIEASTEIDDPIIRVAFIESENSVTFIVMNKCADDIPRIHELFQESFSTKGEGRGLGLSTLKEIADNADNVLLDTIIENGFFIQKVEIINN

The IC50 of `COP(=O)(OC)Oc1ccc([N+](=O)[O-])cc1Cl` is reported as 131 nM (Acetylcholinesterase (Ache, Rattus norvegicus, UniProt P37136); enzyme activity, inhibitor; rat, postnatal day 12, rat brain homogenate; 15 min, 37 °C).
The Km of `CC(C)[C@H](NC(=O)[C@H](CO)NC(=O)[C@H](CO)NC(=O)[C@H](CCCNC(=N)N)NC(=O)[C@H](C)NC(=O)[C@H](CCCCN)NC(=O)c1ccccc1N)C(=O)N[C@@H](CCC(N)=O)C(=O)NCCNc1ccc([N+](=O)[O-])cc1[N+](=O)[O-]` is reported as 1 µM (MCA2; enzyme activity, substrate, FRET hydrolysis; Trypanosoma brucei; pH 7.4).
The z-score of `CSCC[C@H](NC(=O)[C@H](C)NC(=O)[C@@H]1CCCN1C(=O)[C@H](CC(=O)O)NC(=O)[C@H](CC(=O)O)NC(=O)[C@@H](NC(=O)[C@H](CCC(=O)O)NC(=O)[C@H](CO)NC(=O)[C@@H](N)CCC(=O)O)C(C)C)C(=O)O` is reported as 0.38 (HLA class I histocompatibility antigen, A alpha chain allele A*80:01; direction not given).
`C[C@@H](O)[C@H](NC(=O)[C@H](CCC(N)=O)NC(=O)[C@H](CCCNC(=N)N)NC(=O)[C@H](CCCNC(=N)N)NC(=O)[C@H](CCCNC(=N)N)NC(=O)[C@H](CCCNC(=N)N)NC(=O)[C@H](CO)NC(=O)[C@H](CCC(N)=O)NC(=O)c1ccccc1N)C(=O)N1CCC[C@H]1C(=O)N1CCC[C@H]1C(=O)N[C@@H](CCC(N)=O)C(=O)NCCNc1ccc([N+](=O)[O-])cc1[N+](=O)[O-]` has a kcat of 5.5 s⁻¹ (FURIN; substrate; pH 7).
`CC(C)[C@H](NC(=O)CNC(=O)[C@H](COP(=O)(O)O)NC(=O)[C@@H](NC(=O)[C@H](CCC(=O)O)NC(=O)[C@H](CC(=O)O)NC(=O)CCNC(=O)Cc1cc(=O)oc2cc(N)ccc12)C(C)C)C(=O)N[C@@H](CCCCNc1ccc([N+](=O)[O-])cc1[N+](=O)[O-])C(=O)N[C@@H](CC(=O)O)C(N)=O` has a kcat of 0.002 s⁻¹ (CASP3; substrate; pH 7.2, 37 °C).
The z-score of `C[C@@H](O)[C@H](NC(=O)[C@H](CCC(=O)O)NC(=O)CNC(=O)[C@H](Cc1ccccc1)NC(=O)[C@@H](N)Cc1ccccc1)C(=O)N[C@@H](CO)C(=O)N[C@@H](Cc1c[nH]cn1)C(=O)N[C@@H](CC(N)=O)C(=O)N[C@@H](Cc1ccc(O)cc1)C(=O)O` is reported as 0.38 (HLA class I histocompatibility antigen, A alpha chain allele A*80:01; direction not given).
For `N#Cc1c(-c2ccc(Cl)cc2Cl)n(-c2nc(-c3ccc(Cl)cc3)c3c(NC(=O)c4ccccc4)nnc-3[nH]2)[nH]c1=O`, the CC50 was over 100000 nM (SNB-19; SRB).
With `CC[C@H](C)[C@@H]1NC(=O)[C@H](CCC(=O)O)NC(=O)[C@@H]2CCCN2C(=O)[C@H](Cc2c[nH]cn2)NC(=O)[C@H](CCCNC(=N)N)NC(=O)[C@H](C(C)C)NC(=O)[C@H](CC(N)=O)NC(=O)[C@@H]2CSSC[C@H](NC(=O)CN)C(=O)N[C@@H](CSSC[C@@H](C(N)=O)NC1=O)C(=O)N[C@@H](CO)C(=O)N[C@@H](Cc1c[nH]cn1)C(=O)N1CCC[C@H]1C(=O)N[C@@H](C(C)C)C(=O)N2` the IC50 was 0.2 nM (Nicotinic acetylcholine receptor alpha6/alpha3/beta4 (Homo sapiens, UniProt P30926+P32297+Q15825); ion current, antagonist, two-electrode voltage clamp; Xenopus oocytes; human, together with: ACh 300 µM).
`CCOC(=O)c1c(-c2ccc(Cl)cc2Cl)n(-c2nc(-c3ccc(Cl)cc3)c3c(NC(=O)c4ccccc4)nnc-3[nH]2)[nH]c1=O` has a CC50 of over 100000 nM (CCRF-CEM; NCI60 SRB; 5 log dose range).
With `CC(C)C[C@H](NC(=O)[C@@H](NC(=O)[C@H](Cc1ccccc1)NC(=O)[C@H](CCCNC(=N)N)NC(=O)[C@H](CCCCN)NC(=O)[C@H](CCC(N)=O)NC(=O)[C@H](CCCNC(=N)N)NC(=O)[C@H](CC(N)=O)NC(=O)[C@H](CCCNC(=N)N)NC(=O)c1ccccc1N)C(C)C)C(=O)N[C@@H](CO)C(=O)N[C@@H](CCC(N)=O)C(=O)NCCNc1ccc([N+](=O)[O-])cc1[N+](=O)[O-]` the kcat was 0.5 s⁻¹ (FURIN; substrate; pH 7).
`CC[C@H](C)[C@H](NC(=O)[C@H](CCC(=O)O)NC(=O)[C@H](Cc1ccccc1)NC(=O)[C@H](Cc1c[nH]c2ccccc12)NC(=O)[C@H](CC(N)=O)NC(=O)[C@@H](N)CC(C)C)C(=O)N[C@@H](Cc1c[nH]c2ccccc12)C(=O)N[C@H](C(=O)N[C@H](C(=O)O)C(C)C)[C@@H](C)CC` has a z-score of 0.38 (HLA class I histocompatibility antigen, A alpha chain allele A*80:01; direction not given).
The Emax of `O=C(N[C@H]1CCOC1=O)C1CCCC1` is reported as 110% (HTH-type quorum-sensing regulator RhlR (rhlR, Pseudomonas aeruginosa, UniProt P54292); reporter gene, agonist, rhlI-gfp reporter; PAO-JP2).
With `CC(=O)N[C@@H](C)C(=O)N[C@@H](Cc1ccc(OP(=O)(O)O)cc1)C(=O)N[C@@H](Cc1ccc(OP(=O)(O)O)cc1)C(=O)N[C@@H](Cc1c[nH]c2ccccc12)C(=O)N[C@H](C(=O)N[C@@H](C)C(=O)N[C@@H](Cc1ccc(OP(=O)(O)O)cc1)C(=O)N[C@@H](C)C(=O)N[C@@H](C)C(N)=O)[C@@H](C)O` the kcat/Km was 1.51e+07 M⁻¹ s⁻¹ (PTPN1; substrate, continuous UV; pH 7.4).
The Km of `C[C@H](NC(=O)[C@H](CCCCN)NC(=O)c1ccccc1N)C(=O)N[C@@H](CCCNC(=N)N)C(=O)N[C@@H](C)C(=O)N[C@@H](CO)C(=O)N[C@@H](C)C(=O)N[C@@H](CCC(N)=O)C(=O)NCCNc1ccc([N+](=O)[O-])cc1[N+](=O)[O-]` is reported as 0.87 µM (MCA2; enzyme activity, substrate, FRET hydrolysis; Trypanosoma brucei; pH 7.4).
`CC[C@H](C)[C@H](N)C(=O)N[C@@H](CO)C(=O)N[C@@H](CC(C)C)C(=O)N[C@@H](CCC(N)=O)C(=O)N[C@@H](CCC(=O)O)C(=O)N[C@H](C(=O)N[C@@H](Cc1ccccc1)C(=O)N[C@H](C(=O)N[C@@H](CCSC)C(=O)O)[C@@H](C)O)C(C)C` gave a z-score of 0.38 (HLA class I histocompatibility antigen, A alpha chain allele A*80:01; direction not given).
For `CC(=O)N[C@@H](C)C(=O)N[C@@H](C)C(=O)N[C@@H](Cc1ccc(OP(=O)(O)O)cc1)C(=O)N[C@@H](CC(=O)O)C(=O)N[C@@H](CC(C)C)C(=O)N[C@@H](CC(=O)O)C(=O)N[C@@H](CCC(=O)O)C(=O)N[C@@H](Cc1ccc(O)cc1)C(N)=O`, the kcat was 34 ± 1 s⁻¹ (PTPN1; substrate; pH 7.4, catalytic domain).
The z-score of `CC[C@H](C)[C@H](NC(=O)[C@@H](NC(=O)[C@@H](N)CCCNC(=N)N)C(C)C)C(=O)N[C@@H](CCCNC(=N)N)C(=O)N[C@H](C(=O)N[C@H](C(=O)N[C@@H](CCCNC(=N)N)C(=O)N[C@@H](CCC(=O)O)C(=O)N[C@@H](CCCCN)C(=O)O)C(C)C)[C@@H](C)O` is reported as 0.38 (HLA class I histocompatibility antigen, A alpha chain allele A*80:01; direction not given).
`CC(C)C[C@H](NC(=O)[C@H](C)NC(=O)[C@H](Cc1ccc(O)cc1)NC(=O)[C@H](CCCNC(=N)N)NC(=O)[C@H](CCCNC(=N)N)NC(=O)[C@H](CCCNC(=N)N)NC(=O)[C@H](CCCNC(=N)N)NC(=O)[C@H](CCCNC(=N)N)NC(=O)[C@@H](NC(=O)c1ccccc1N)C(C)C)C(=O)N[C@@H](CO)C(=O)N[C@@H](CCC(N)=O)C(=O)NCCNc1ccc([N+](=O)[O-])cc1[N+](=O)[O-]` has a kcat of 0.84 s⁻¹ (FURIN; substrate; pH 7).
`CC[C@H](C)[C@H](NC(=O)[C@H](Cc1ccc(O)cc1)NC(=O)[C@H](CC(N)=O)NC(=O)[C@H](Cc1ccccc1)NC(=O)[C@H](Cc1ccccc1)NC(=O)[C@H](CS)NC(=O)[C@H](Cc1ccccc1)NC(=O)[C@@H](NC(=O)[C@@H](N)[C@@H](C)O)C(C)C)C(=O)O` gave a z-score of 0.38 (HLA class I histocompatibility antigen, A alpha chain allele A*80:01; direction not given).
With `CC(C)C[C@H](NC(=O)[C@H](CCC(=O)O)NC(=O)[C@H](CCCNC(=N)N)NC(=O)[C@H](CCCCN)NC(=O)[C@H](CCCNC(=N)N)NC(=O)[C@H](CCCNC(=N)N)NC(=O)[C@H](CCCCN)NC(=O)[C@H](CCCNC(=N)N)NC(=O)c1ccccc1N)C(=O)N[C@@H](CCC(=O)O)C(=O)N[C@H](C(=O)N[C@@H](CCC(N)=O)C(=O)NCCNc1ccc([N+](=O)[O-])cc1[N+](=O)[O-])[C@@H](C)O` the kcat/Km ratio was 58.8 and 59 (FURIN; substrate; relative to: with KCl over without KCl).
`CC(C)C[C@@H]1NC(=O)[C@H](CO)NC(=O)[C@H](CO)NC(=O)[C@@H](NC(=O)CCc2cn(CCOCCOCCOCCOCCOCCOCCOCCO)nn2)CSC(=O)[C@H](Cc2ccccc2)NC1=O` — result for inhibition: “inhibited” (Receptor-histidine kinase AgrC (agrC, Staphylococcus aureus, UniProt O07911); Agr quorum sensing, antagonist, fluorescence reporter; Staphylococcus aureus, agr-deleted reporter strain, solution; concentration not given, together with: AIP-I 0.1 µM).
`CC(C)C[C@H](NC(=O)[C@H](Cc1ccccc1)NC(=O)CNC(=O)CNC(=O)[C@@H](N)Cc1ccc(O)cc1)C(=O)O` gave a Km of 82 µM (aminopeptidase III peak, rat; substrate; together with: NAP-2).
`CC(C)C[C@H](NC(=O)c1ccccc1N)C(=O)N[C@@H](CCCCN)C(=O)N[C@@H](CCCNC(=N)N)C(=O)N[C@@H](CCCNC(=N)N)C(=O)N[C@@H](CCCCN)C(=O)N[C@@H](CCCNC(=N)N)C(=O)N[C@@H](C)C(=O)N[C@H](C(=O)N[C@@H](CC(N)=O)C(=O)N1CCC[C@H]1C(=O)N[C@@H](CCC(N)=O)C(=O)NCCNc1ccc([N+](=O)[O-])cc1[N+](=O)[O-])C(C)C` gave a Km of 6.7 µM (FURIN; substrate; pH 7).
`CC(=O)N[C@@H](C)C(=O)N[C@@H](C)C(=O)N[C@@H](C)C(=O)N[C@@H](C)C(=O)N[C@@H](C)C(=O)N[C@@H](Cc1ccc(OP(=O)(O)O)cc1)C(=O)N[C@@H](CCC(=O)O)C(=O)N[C@@H](CCC(=O)O)C(=O)N[C@H](C(=O)N[C@@H](Cc1c[nH]cn1)C(N)=O)C(C)C` has a kcat/Km of 1.1e+06 M⁻¹ s⁻¹ (PTPN1; substrate, continuous UV; pH 7.4).
`CC[C@H](C)[C@H](NC(=O)[C@@H](NC(=O)[C@H](CC(=O)O)NC(=O)CNC(=O)[C@@H](NC(=O)[C@H](CC(=O)O)NC(=O)[C@H](CCSC)NC(=O)[C@H](CCC(=O)O)NC(=O)[C@H](CC(=O)O)NC(=O)[C@@H](NC(=O)CCNC(=O)Cc1cc(=O)oc2cc(N)ccc12)C(C)C)[C@@H](C)OP(=O)(O)O)[C@@H](C)O)C(=O)N[C@@H](CCCCNc1ccc([N+](=O)[O-])cc1[N+](=O)[O-])C(N)=O` has a Km of 17.6 µM (CASP3; substrate; pH 7.2).
With `CC(=O)N[C@@H](C)C(=O)N[C@@H](Cc1ccc(OP(=O)(O)O)cc1)C(=O)N[C@@H](Cc1ccc(OP(=O)(O)O)cc1)C(=O)N[C@@H](CCC(=O)O)C(=O)N[C@H](C(=O)N[C@@H](CO)C(=O)N[C@@H](Cc1ccc(OP(=O)(O)O)cc1)C(=O)N[C@@H](C)C(=O)N[C@@H](C)C(N)=O)C(C)C` the kcat/Km was 9.5e+06 M⁻¹ s⁻¹ (PTPN1; substrate, continuous UV; pH 7.4).
With `CC(C)[C@H](NC(=O)[C@H](CO)NC(=O)[C@H](CCCNC(=N)N)NC(=O)[C@H](C)NC(=O)[C@H](CCCCN)NC(=O)c1ccccc1N)C(=O)N[C@@H](C)C(=O)N[C@@H](CCC(N)=O)C(=O)NCCNc1ccc([N+](=O)[O-])cc1[N+](=O)[O-]` the Km was 0.36 µM (MCA2; enzyme activity, substrate, FRET hydrolysis; Trypanosoma brucei; pH 7.4).
`CC(C)C[C@H](NC(=O)[C@H](CC(N)=O)NC(=O)[C@@H](N)CC(=O)O)C(=O)N[C@@H](Cc1ccc(O)cc1)C(=O)N[C@@H](Cc1ccc(OP(=O)(O)O)cc1)C(=O)N[C@@H](Cc1c[nH]c2ccccc12)C(=O)N[C@@H](CC(=O)O)C(N)=O` gave a kcat/Km of 5.5e+06 M⁻¹ s⁻¹ (PTPN1; enzyme activity, substrate; pH 7.4).
With `CC(=O)N[C@@H](C)C(=O)N[C@@H](CCCCN)C(=O)N[C@@H](Cc1ccccc1)C(=O)N[C@@H](CCC(=O)O)C(=O)N[C@@H](CC(=O)O)C(=O)N[C@H](C(=O)N[C@@H](Cc1ccc(OP(=O)(O)O)cc1)C(=O)N[C@@H](C)C(=O)N[C@@H](C)C(N)=O)[C@@H](C)O` the kcat/Km was 4.9e+06 M⁻¹ s⁻¹ (PTPN1; substrate, continuous UV; pH 7.4).
